Experimental data from different studies.
A part holds a random share of what one study measured. Changes are numbered by the printed parent chain.

Block 1
Target: Histone acetyltransferase KAT6A, both winged helices, GST fusion (KAT6A, Homo sapiens, UniProt Q92794, residues 1-181)
Method: protein binding microarray
Form: double-stranded DNA, one strand shown
Matrix: in vitro
Concentration: not given
Notes: 8-mer, flanks averaged, mean of 2 arrays, mostly near background
Relative to: not given
Direction: higher = stronger binding
Target sequence (chain): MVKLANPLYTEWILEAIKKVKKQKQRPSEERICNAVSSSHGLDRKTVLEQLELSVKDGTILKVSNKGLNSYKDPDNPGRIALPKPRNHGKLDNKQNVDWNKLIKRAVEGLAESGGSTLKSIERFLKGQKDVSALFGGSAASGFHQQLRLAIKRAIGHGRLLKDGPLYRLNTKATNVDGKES
Oligonucleotide | E-score
ATTTCGAG | -0.0439
AATAATTA | -0.0639
ACGTGCAT | -0.14
CGCACTCC | 0.108
GATCATCA | -0.096
GGCCAGCC | -0.0783
ACCCCGAG | -0.0131
CCAAACAC | -0.117
CCTATCCC | -0.206
GGTAGAGA | -0.0846
ATCAGATC | -0.23
GGATTGAA | -0.0648
GATCCGCA | 0.115
CCGAGACC | 0.158
TGGCTCAA | -0.0923
ACACCTTC | 0.0254
CATTGTAA | -0.0815
CGGAGCAC | 0.119
ATGTCCTA | -0.0764
CGGTTCCC | 0.137
CGCATAAA | 0.0996

Block 2
Target: ABI1, truncated, D143A, DHFR fusion (Arabidopsis thaliana)
Method: DHFR PCA, deep sequencing
Matrix: yeast
Notes: methotrexate growth selection, single substitutions
With: (+)-ABA 4.8 µM
Relative to: wild-type fitted maximum
Direction: higher = stronger binding
Starting sequence: PYL1, truncated, DHFR fusion (Arabidopsis thaliana); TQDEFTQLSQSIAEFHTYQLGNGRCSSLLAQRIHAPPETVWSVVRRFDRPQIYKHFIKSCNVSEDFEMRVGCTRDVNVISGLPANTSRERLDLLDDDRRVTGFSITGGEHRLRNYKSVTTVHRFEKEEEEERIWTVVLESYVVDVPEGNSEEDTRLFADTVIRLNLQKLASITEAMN
Variant | relative binding score [%]
R45G | -5.5
E89L | -2.16
K58C | 30.8
A84F | 58.7
A35F | -12.2
N61L | 68.2
K58G | 24
W134M | 86.5
F124N | 25.6
V62Q | -6.55
G148S | 29.7
R163Q | 53.9
S80G | 12.3
D153W | -17.5
V161D | -7.15
H34G | 57.1
I133R | 62.3
V40M | -10.9
R113S | 66
W41T | 4.18
T120C | 3.72
V44H | -12
G81P | 21.8
D159W | 6.08
L29N | 45.8

Block 3
Target: RNA binding protein fox-1 homolog 2, RRM domain, GST-SBP tag (RBFOX2, Homo sapiens, UniProt O43251-10, residues 100-194)
Method: RNA Bind-n-Seq
Form: RNA
Matrix: in vitro
Concentration: 365 nM
Notes: natural RNA segment, single round, ends assumed
Relative to: no-protein control
Direction: higher = stronger binding
Target sequence (chain): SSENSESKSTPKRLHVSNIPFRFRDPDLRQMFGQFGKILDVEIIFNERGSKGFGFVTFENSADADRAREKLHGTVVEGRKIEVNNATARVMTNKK
Oligonucleotide | RBNS enrichment (R)
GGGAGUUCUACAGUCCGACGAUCUUUGUGGGCUGGAGUUACCAGUAGCUCCAGCAGUUACCCUGAAGAGAGAUUGGGCUUCAGCCUUCAGCAGGUGGUUCUCUCCCAUGCCUGGCCUUGGUGUGGAGGGGCUGUGGAAUUCUCGGGUGCCAA | 0.277
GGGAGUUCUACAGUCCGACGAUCACAAAAAUUAUGCAGAAAAAUUCAUUUGAAUAUCCAUCACUUAAAUGGUGACAAUAACAACUUCAGAGAUCUGUGAUGAUCAUUUAAAUGGAGUACUCAUCUUCUCAUAGUGGAAUUCUCGGGUGCCAA | 0.471
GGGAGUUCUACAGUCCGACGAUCGCCUCAACCAACUUAGUGACUUGUUUAGAAAAAAAAGACAAAAAAGUAAAAAUAAAAACAAAAAAGUUGGAAGGCAGAAACCAUUAAAAAACAAAAAGCCAACAACCCAGUGGAAUUCUCGGGUGCCAA | 0.785
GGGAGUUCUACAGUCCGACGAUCCAUUUGGUCUUAACACUAUGGGCUUUGUUUGCUCUGUGCUGCUGUGCCACUGCUGUUGUCUGCUCAUUGUCCUGCCUGUUGCUCAUUAUAGCCCCUGUCCUUCAUGUGUCUGGAAUUCUCGGGUGCCAA | 0.395
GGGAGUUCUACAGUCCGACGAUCCAGAAGGGUACUUUCUGUGUCAUACCAUGCCACUUCUUUAAGCUCUUCAGGGCAGCCAAAGCCAGCCCUUUUCUCCUACUGCCCCCAGGAGAAAUAGCACUCUUCUCCCUUGGAAUUCUCGGGUGCCAA | 0.311
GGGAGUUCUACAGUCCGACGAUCUACAUGGUUAAAGCAGCAAGAAUUCUUUUGUUGAUAUGUAAUUAUACACAUAAAAUAUAUAUAUGUAUGAUACAUGAAAUAUAUUUAGAAAUGUUCAUAAUUUUAAUGGAUGGAAUUCUCGGGUGCCAA | 0.804
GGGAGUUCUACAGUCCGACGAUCUCAAAAACACUAUCAUUUCAACAUAGGAUCAAUAUAAAAAUUAUUAAUGAGUUAUUUUACUUUUUUUCAUAUUAGGCCUUUGAAAUUCAGUGUGUAUUAAACACAUCUCAUGGAAUUCUCGGGUGCCAA | 0.583
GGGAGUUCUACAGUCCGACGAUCUGGAGCAUGGCCAAGAGCCAGCUUGCACCACCCACCUGGGAGGCCGAGGAGGAGGUCCCCUGGGCACAGGGCCUCUUUGGGACUUCAGAGGAAAUCUCCCAGUCCCACUCUGGAAUUCUCGGGUGCCAA | 0.376
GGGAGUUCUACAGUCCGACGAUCUUUAUCAUUCAGAAAUCUUGCAUUUUCAAAAAUUCAGUGCAAGCGCCAGGCGAUUUGUGUCUAAGGAUACGAUUUUGAACCAUAUGGGCAGUGUACAAAAUAUGAAACAAUGGAAUUCUCGGGUGCCAA | 0.356
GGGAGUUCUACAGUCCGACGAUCUCUCUAUUUAUCUUAGAAGUUUAGUUUCCCCCACCUCCCCUACCUUCUCUAGGUGGACAUUAAACCAUCGUCCAAAGUACAUGAGAGUCACUGACUCUGUUCACACAACUUGGAAUUCUCGGGUGCCAA | 0.486
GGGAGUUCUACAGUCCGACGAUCCUCGAUUGCUUCAGCCUCACCGGGGCAUUGAAUCAUCAUUUGUUGAAUGGCAACAGGUUUGCUGGGGCAGAGGCACUGCCUAAGUGGGAGCAUGCACGUGAAAAUAGAAAUGGAAUUCUCGGGUGCCAA | 7.87
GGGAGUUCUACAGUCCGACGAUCCCUUUCAUAGCCUUAAUUCAUGUCAUGUAUAAAUUAACAUAAAUCAUGUCUAUUUACAUAGUGAAGGUCCAGAAUAAAUGAAAUAAUUUUGCUACCUUGGUGUUGAAACAUGGAAUUCUCGGGUGCCAA | 0.318

Block 4
Target: CREB3, bZIP domain (human)
Method: DHFR protein complementation
Matrix: yeast
Notes: single substitutions, most at no-binding floor
Relative to: wild-type JUN-FOS pair
Direction: higher = stronger binding
Starting sequence: JUN, bZIP domain (human); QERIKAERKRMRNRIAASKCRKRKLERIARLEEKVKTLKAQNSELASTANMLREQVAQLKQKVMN; partner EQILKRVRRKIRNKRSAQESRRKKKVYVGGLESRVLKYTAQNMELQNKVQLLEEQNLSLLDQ
Variant | binding fitness [natural log]
A57E | -1.38
S43I | -1.26
K36A | -1.38
E44M | -1.51
L45D | -1.46
S47F | -1.42
I28S | -1.52
E54Y | -1.48
N42P | -1.51
S43D | -1.37
T37M | -1.47
L31Q | -1.6
S47C | -1.49
A46T | -1.42
S47G | -1.35
L45W | -1.54
A57Q | -1.33
A40Y | -1.41

Block 5
Target: CCNF, cyclin fold, Cln2 fusion (human)
Method: yeast growth competition, sequencing
Matrix: yeast
Notes: strong parent motif
Relative to: not given
Direction: higher = stronger binding
Starting sequence: PKMYT1 docking peptide (human); SFEPRNLLSLFED
Variant | normalised enrichment score
SFSPRNLLSLFED [E3S] | -0.418
SFEPRNLLSLGED [F11G] | -0.742
SFEPRNLLSLFEL [D13L] | 1.95
SFEPENLLSLFED [R5E] | -0.166
SFLPRNLLSLFED [E3L] | 1.38
SFEPRNLLSLFQD [E12Q] | 0.682
SFEPRDLLSLFED [N6D] | -1.65
SFEPRNILSLFED [L7I] | -0.857
SFHPRNLLSLFED [E3H] | 2.42
SFEPRNLLSLTED [F11T] | -0.0883
SFEPRNLLDLFED [S9D] | 0.282
RFEPRNLLSLFED [S1R] | 2.28
SFEPRNFLSLFED [L7F] | -1.24
SFEPRNLLSLFMD [E12M] | 1.1
SFEPRQLLSLFED [N6Q] | 0.815
SFEPRNLLSLFEC [D13C] | 1.18
SFEPRNLLSLFEF [D13F] | 1.97
SFEPRNSLSLFED [L7S] | -1.35
SFEPRNLLSLQED [F11Q] | -0.293
SFEPRNMLSLFED [L7M] | -1.21
SFEPRNELSLFED [L7E] | -1.63
SFEPRPLLSLFED [N6P] | -0.365

For quick reference, copied from above (block 5):
Variant | normalised enrichment score
SFLPRNLLSLFED [E3L] | 1.38
SFEPRNSLSLFED [L7S] | -1.35
SFEPRNILSLFED [L7I] | -0.857
SFEPRNLLSLFEC [D13C] | 1.18
SFEPENLLSLFED [R5E] | -0.166
SFEPRNMLSLFED [L7M] | -1.21
SFEPRNLLSLFEL [D13L] | 1.95
SFEPRDLLSLFED [N6D] | -1.65
SFEPRNLLSLFQD [E12Q] | 0.682
SFEPRNLLSLFMD [E12M] | 1.1
SFEPRQLLSLFED [N6Q] | 0.815
SFEPRNLLDLFED [S9D] | 0.282
SFEPRNLLSLGED [F11G] | -0.742
SFEPRPLLSLFED [N6P] | -0.365
SFEPRNLLSLQED [F11Q] | -0.293
RFEPRNLLSLFED [S1R] | 2.28
